Measurements gathered from unrelated publications.
Numbers after ± are the reported error. Bridge positions count the residues as written; N and C are the ends. Square brackets hold non-standard residues; d marks the D form. Where no end group is shown, it is not given here. Ends that are not written are not given here. [ ]: non-standard residue; d: D form.
T1: STAG2/RAD21 STAG2 80-1060, RAD21 281-420 (Homo sapiens); chain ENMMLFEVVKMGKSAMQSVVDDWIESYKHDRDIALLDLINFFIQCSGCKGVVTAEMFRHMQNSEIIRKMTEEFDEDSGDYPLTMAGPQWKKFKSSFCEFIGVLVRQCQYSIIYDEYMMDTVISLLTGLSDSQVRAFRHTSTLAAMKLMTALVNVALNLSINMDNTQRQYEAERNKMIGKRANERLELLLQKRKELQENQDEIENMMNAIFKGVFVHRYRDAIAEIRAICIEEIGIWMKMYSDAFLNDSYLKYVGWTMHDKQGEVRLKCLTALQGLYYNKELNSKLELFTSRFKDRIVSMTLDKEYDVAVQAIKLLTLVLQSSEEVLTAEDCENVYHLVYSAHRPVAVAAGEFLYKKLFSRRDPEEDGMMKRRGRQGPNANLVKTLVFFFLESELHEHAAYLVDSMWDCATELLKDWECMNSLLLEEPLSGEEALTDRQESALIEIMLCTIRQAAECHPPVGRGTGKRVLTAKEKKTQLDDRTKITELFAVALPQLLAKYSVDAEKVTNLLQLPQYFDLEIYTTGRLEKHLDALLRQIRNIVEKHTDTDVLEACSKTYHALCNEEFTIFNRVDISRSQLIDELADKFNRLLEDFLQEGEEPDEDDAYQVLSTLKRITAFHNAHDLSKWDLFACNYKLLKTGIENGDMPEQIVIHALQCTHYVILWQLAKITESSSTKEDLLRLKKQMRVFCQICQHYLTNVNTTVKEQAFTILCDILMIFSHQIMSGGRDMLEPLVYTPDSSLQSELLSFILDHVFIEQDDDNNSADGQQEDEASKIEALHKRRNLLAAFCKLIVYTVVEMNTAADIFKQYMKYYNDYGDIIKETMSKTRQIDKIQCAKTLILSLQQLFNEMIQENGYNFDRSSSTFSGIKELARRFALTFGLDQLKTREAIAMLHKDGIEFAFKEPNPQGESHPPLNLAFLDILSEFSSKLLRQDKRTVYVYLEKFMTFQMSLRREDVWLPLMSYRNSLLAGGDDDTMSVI; chain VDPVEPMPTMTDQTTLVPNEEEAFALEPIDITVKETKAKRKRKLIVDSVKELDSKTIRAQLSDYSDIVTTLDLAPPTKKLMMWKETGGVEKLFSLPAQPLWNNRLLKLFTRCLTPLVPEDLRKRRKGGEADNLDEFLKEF
Chain of UniProt Q9EP73 (whole entry, looked up): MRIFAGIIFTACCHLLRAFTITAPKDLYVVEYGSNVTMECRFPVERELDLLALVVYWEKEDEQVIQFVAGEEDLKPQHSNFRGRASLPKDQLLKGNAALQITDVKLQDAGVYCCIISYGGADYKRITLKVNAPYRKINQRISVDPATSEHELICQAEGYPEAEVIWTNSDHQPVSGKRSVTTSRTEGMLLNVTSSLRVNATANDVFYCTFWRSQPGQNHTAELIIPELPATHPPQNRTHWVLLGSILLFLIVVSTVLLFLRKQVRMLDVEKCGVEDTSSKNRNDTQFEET
Chain of UniProt P24158 (whole entry, looked up): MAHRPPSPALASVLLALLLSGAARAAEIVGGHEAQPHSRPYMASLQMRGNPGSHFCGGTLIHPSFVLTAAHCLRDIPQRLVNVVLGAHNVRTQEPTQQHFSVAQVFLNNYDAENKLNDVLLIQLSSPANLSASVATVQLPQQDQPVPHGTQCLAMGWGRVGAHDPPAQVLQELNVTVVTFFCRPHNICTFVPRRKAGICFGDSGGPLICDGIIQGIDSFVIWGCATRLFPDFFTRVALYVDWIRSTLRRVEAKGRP
Chain of UniProt P43403 (whole entry, looked up): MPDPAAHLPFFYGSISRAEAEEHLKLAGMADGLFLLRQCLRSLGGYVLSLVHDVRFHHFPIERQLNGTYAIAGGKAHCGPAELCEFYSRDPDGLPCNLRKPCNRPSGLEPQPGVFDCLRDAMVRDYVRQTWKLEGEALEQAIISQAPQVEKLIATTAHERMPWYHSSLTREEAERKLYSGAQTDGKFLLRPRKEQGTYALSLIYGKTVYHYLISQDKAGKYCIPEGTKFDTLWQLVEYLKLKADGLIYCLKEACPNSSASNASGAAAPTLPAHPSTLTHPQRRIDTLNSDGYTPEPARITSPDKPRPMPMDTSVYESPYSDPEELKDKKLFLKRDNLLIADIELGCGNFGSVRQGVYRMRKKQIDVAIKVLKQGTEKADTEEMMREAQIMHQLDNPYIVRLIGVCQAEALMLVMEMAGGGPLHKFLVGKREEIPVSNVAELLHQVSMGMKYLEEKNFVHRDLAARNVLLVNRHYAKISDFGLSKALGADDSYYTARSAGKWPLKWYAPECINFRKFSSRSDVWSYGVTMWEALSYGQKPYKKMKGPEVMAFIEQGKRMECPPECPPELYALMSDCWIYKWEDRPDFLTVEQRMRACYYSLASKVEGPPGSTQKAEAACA
Chain of UniProt O15392 (whole entry, unmodified, looked up): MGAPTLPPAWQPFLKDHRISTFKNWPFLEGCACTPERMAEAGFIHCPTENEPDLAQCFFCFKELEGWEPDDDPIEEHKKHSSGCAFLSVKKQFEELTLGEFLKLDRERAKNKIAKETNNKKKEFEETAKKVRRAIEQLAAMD

Substance = RmS-3, glycosylated (Rhipicephalus microplus); target or system = PRTN3 (Homo sapiens, UniProt P24158); assay = chromogenic substrate hydrolysis, inhibitor; conditions = 1 µM; measurement = protease inhibition; result = < 20%
Substance = VLRKTRHVNILLFM (BRAF 504-517); target or system = BRAF kinase domain with dimer interface; assay = fluorescence titration; test system = peptide; measurement = Kd; result = 5750 ± 1200 nM
Substance = AR[pT]KQTARKSTGGKA (histone H3 2-16 (UniProt P68431); pT3; pT = C[C@@H](OP(=O)(O)O)[C@H](N)C(=O)O; sequence looked up); target or system = BIRC5 E51A (Homo sapiens, UniProt O15392); assay = ITC; test system = peptide; conditions = pH 7.5, 25 °C, NaCl 100 mM; measurement = Kd; result = 14300 ± 2200 nM
Substance = RmS-17, glycosylated (Rhipicephalus microplus); target or system = F10 factor Xa (Bos taurus); assay = chromogenic substrate hydrolysis, inhibitor; conditions = 1 µM; measurement = protease inhibition; result = < 20%
Substance = MoaA peptide (Staphylococcus aureus); target or system = moaA E97A/G340A (Staphylococcus aureus, UniProt P69848); assay = MoaA/MoaC coupled assay; conditions = 200 µM; scale = reference: 8-mer peptide, higher = more activity; measurement = restored activity; result = > 5 fold
Substance = MFLDHILNKFWILHYAGSGSSG (SPAM peptide del2-3; peptide-RNA fusion); target or system = CD274 ectodomain (Homo sapiens); assay = radioligand binding; test system = peptide; scale = reference: full-length SPAM, higher = more binding; measurement = relative binding; result = < 25%
Substance = CGNQL[pY]NELNLGRREE (CD247 residues 69-82; phosphotyrosine; pY = N[C@@H](Cc1ccc(OP(=O)(O)O)cc1)C(=O)O); target or system = ZAP70 1-606 (Homo sapiens, UniProt P43403); assay = competition with labelled peptide, TR-FRET; test system = peptide; measurement = Ki; result = 112000 ± 1500 nM
Substance = GCVRLHESCLGQQVPCCDPAATCYCVERGDGNRRCYCR (AgRP variant); target or system = ITGAV/ITGB3 whole, on cells (Homo sapiens); assay = competition with labeled echistatin, radioligand binding; test system = designed binder, U87MG; conditions = 3 h, room temperature, with: 125I-echistatin 0.06 nM; measurement = IC50; result = 130 nM
Substance = GVLEKTRHVNILLFMGYST (BRAF 503-521 R506E); target or system = BRAF kinase domain with dimer interface; assay = fluorescence titration; test system = peptide; measurement = Kd; result = 1090 ± 290 nM
Substance = SNDAYNFNLEEGVHL[pT]PFR (SGO1 331-349 (Homo sapiens, UniProt Q5FBB7); pT346; pT = C[C@@H](OP(=O)(O)O)[C@H](N)C(=O)O); target or system = T1, STAG2/RAD21 STAG2 80-1060, RAD21 281-420 (Homo sapiens); assay = ITC; test system = peptide; conditions = pH 7.7, 25 °C, NaCl 150 mM; measurement = ΔH; result = -20 kcal/mol
Substance = VLRKTRHVNILLAMG (BRAF 504-518 F516A); target or system = BRAF kinase domain with dimer interface; assay = fluorescence titration; test system = peptide; measurement = Kd; result = 570 ± 80 nM
Substance = GCVRLHESCLGQQVPCCDPAATCYCESRGDVVRKCYCR (AgRP variant); target or system = ITGAV/ITGB3 whole, on cells (Homo sapiens); assay = competition with labeled echistatin, radioligand binding; test system = designed binder, U87MG; conditions = 3 h, room temperature, with: 125I-echistatin 0.06 nM; measurement = IC50; result = 410 nM
Substance = RmS-6, glycosylated (Rhipicephalus microplus); target or system = PLAU (Homo sapiens, UniProt P00749); assay = chromogenic substrate hydrolysis, inhibitor; conditions = 1 µM; measurement = protease inhibition; result = < 20%
Substance = RUNX3 deletion of PPPY motif; target or system = CagA (Helicobacter pylori, UniProt P80200); assay = cycloheximide chase; test system = COS-7; conditions = co-expressed with CagA; measurement = half-life; result = > 4 h
Substance = MDHILNKFWILHYAGSGSSG (SPAM peptide del2-5; peptide-RNA fusion); target or system = CD274 ectodomain (Homo sapiens); assay = radioligand binding; test system = peptide; scale = reference: full-length SPAM, higher = more binding; measurement = relative binding; result = < 25%
Substance = VLRKTRHVNIALFMG (BRAF 504-518 L514A); target or system = BRAF kinase domain with dimer interface; assay = fluorescence titration; test system = peptide; measurement = Kd; result = 1020 ± 140 nM
Substance = melittin; assay = CD titration; test system = POPC 75% POPG 25% vesicles; conditions = pH 7.0, 40 °C; measurement = free energy of partitioning; result = -7.16 kcal/mol
Substance = VLAKTRHVNILLFMG (BRAF 504-518 R506A); target or system = BRAF kinase domain with dimer interface; assay = fluorescence titration; test system = peptide; measurement = Kd; result = 360 ± 30 nM
Substance = AR[pT]KQTARKSTG (H3C1 1-12; pT3; pT = C[C@@H](OP(=O)(O)O)[C@H](N)C(=O)O); target or system = BIRC5 1-142 (Homo sapiens, UniProt O15392); assay = ITC; test system = peptide; conditions = pH 7.8, 25 °C; measurement = Kd; result = 15600 ± 600 nM
Substance = LLKTRHVNILLFMG (BRAF 505-518 R506L); target or system = BRAF kinase domain with dimer interface; assay = fluorescence titration; test system = peptide; measurement = Kd; result = 550 ± 105 nM
Substance = CD24/Siglec-10 blocking peptide, D-amino acids; target or system = Cd274 (Mus musculus, UniProt Q9EP73); assay = competition with ligand, flow cytometry; conditions = in cells; measurement = IC50; result = 55600 nM
Substance = VLRKTRAVNILLFMG (BRAF 504-518 H510A); target or system = BRAF kinase domain with dimer interface; assay = fluorescence titration; test system = peptide; measurement = Kd; result = 2700 ± 400 nM
Substance = CNCKAPETALCARRCQQH-NH2 (Apamin; disulfide 1-11, 3-15; sequence looked up); target or system = E3 ubiquitin-protein ligase Mdm2, residues 25-109 (MDM2, Homo sapiens, UniProt Q00987); assay = SPR competition; test system = peptide, synthetic MDM2 (25-109); conditions = with: immobilized p53 (15-29); measurement = Kd; result = no binding

Repeated from above:
Substance = VLAKTRHVNILLFMG (BRAF 504-518 R506A); target or system = BRAF kinase domain with dimer interface; assay = fluorescence titration; test system = peptide; measurement = Kd; result = 360 ± 30 nM
Substance = AR[pT]KQTARKSTG (H3C1 1-12; pT3; pT = C[C@@H](OP(=O)(O)O)[C@H](N)C(=O)O); target or system = BIRC5 1-142 (Homo sapiens, UniProt O15392); assay = ITC; test system = peptide; conditions = pH 7.8, 25 °C; measurement = Kd; result = 15600 ± 600 nM
Substance = LLKTRHVNILLFMG (BRAF 505-518 R506L); target or system = BRAF kinase domain with dimer interface; assay = fluorescence titration; test system = peptide; measurement = Kd; result = 550 ± 105 nM
Substance = CD24/Siglec-10 blocking peptide, D-amino acids; target or system = Cd274 (Mus musculus, UniProt Q9EP73); assay = competition with ligand, flow cytometry; conditions = in cells; measurement = IC50; result = 55600 nM
